Published values gathered from unrelated publications.
Protocols differ between the studies behind these lines. Several values in a cell are separate wells, animals, samples, runs or records. ± gives the spread as reported.
Spike glycoprotein: Spike glycoprotein (Severe acute respiratory syndrome coronavirus 2, UniProt P0DTC2)
rep main protease: Replicase polyprotein 1ab, main protease (rep, Severe acute respiratory syndrome coronavirus 2, UniProt P0DTD1)

| Compound | tested on | test | system | conditions | scale | endpoint | result |
| --- | --- | --- | --- | --- | --- | --- | --- |
| CC(C)=CCC[C@](C)(O[C@@H]1O[C@H](CO[C@@H]2O[C@H](CO)[C@@H](O)[C@H](O)[C@H]2O)[C@@H](O)[C@H](O)[C@H]1O)[C@H]1CC[C@]2(C)[C@@H]1[C@H](O)C[C@@H]1[C@@]3(C)CC[C@H](O[C@@H]4O[C@H](CO)[C@@H](O)[C@H](O)[C@H]4O)C(C)(C)[C@@H]3CC[C@]12C | Spike glycoprotein | binding, BLI | – | – | – | kon | 1770 M⁻¹ s⁻¹ |
| Cn1cnc(Cn2c(=O)[nH]/c(=N\c3cc4cn(C)nc4cc3Cl)n(Cc3cc(F)c(F)cc3F)c2=O)n1 | – | – | human, normal renal function | oral, 375 mg, vessel puncture site haemorrhage TEAE, Moderate severity | – | patients with adverse event | 0% |
| CC[C@H](C)[C@H](NC(=O)[C@H](CC(C)C)NC(=O)[C@H](Cc1c[nH]c2ccccc12)NC(=O)[C@H](CCC(N)=O)NC(=O)[C@@H](NC(=O)[C@H](Cc1ccccc1)NC(=O)[C@H](C)NC(=O)[C@H](CCCCNC(=O)COCCOCCNC(=O)COCCOCCNC(=O)CC[C@H](NC(=O)CCCCCCCCCCCCCCCCCCC(=O)O)C(=O)O)NC(=O)[C@H](CCC(N)=O)NC(=O)[C@H](C)NC(=O)[C@@H](NC(=O)[C@H](CCCCN)NC(=O)[C@H](CC(=O)O)NC(=O)[C@H](CC(C)C)NC(=O)C(C)(C)NC(=O)[C@@H](NC(=O)[C@H](CO)NC(=O)[C@H](Cc1ccc(O)cc1)NC(=O)[C@H](CC(=O)O)NC(=O)[C@H](CO)NC(=O)[C@@H](NC(=O)[C@H](Cc1ccccc1)NC(=O)[C@@H](NC(=O)CNC(=O)[C@H](CCC(=O)O)NC(=O)C(C)(C)NC(=O)[C@@H](N)Cc1ccc(O)cc1)[C@@H](C)O)[C@@H](C)O)[C@@H](C)CC)[C@@H](C)CC)C(C)C)C(=O)N[C@@H](C)C(=O)NCC(=O)NCC(=O)N1CCC[C@H]1C(=O)N[C@@H](CO)C(=O)N[C@@H](CO)C(=O)NCC(=O)N[C@@H](C)C(=O)N1CCC[C@H]1C(=O)N1CCC[C@H]1C(=O)N1CCC[C@H]1C(=O)N[C@@H](CO)C(N)=O | – | – | healthy subjects | all MAD doses | – | subjects feeling hot | 28.6% |
| CC(C)=CCc1cc2c(cc1O)O[C@H](c1ccc(O)cc1)CC2=O | Spike glycoprotein | binding | – | – | – | koff | 0.109 s⁻¹ |
| O=C(/C=C\c1cnccn1)NC[C@@H](NC(=O)c1cn[nH]c(=O)c1)c1ccc2ccccc2c1 | rep main protease | enzyme activity, inhibitor | – | 5 µM, run 2 | – | inhibition | 11.4% |
| CC(C)[C@H](O)C(=O)N[C@@H](C)C(=O)N[C@@H]1C(=O)N(C)CCc2ccccc21 | rep main protease | reporter gene (Gaussia luciferase), inhibitor | – | 20 µM | – | inhibition | -1.53% |
| Nc1ncnc2c([C@@H]3N[C@H](CO)[C@@H](O)[C@H]3O)c[nH]c12 | Marburg virus | viral RNA in cell lysate | HeLa, Musoke | 0.8 µM, 1 h | – | inhibition | 22.2% |
| O=C(NN1C(=O)[C@@H]2[C@@H]3C=C[C@@H]([C@H]4C[C@@H]34)[C@@H]2C1=O)c1ccc(C(F)(F)F)cc1 | rep main protease | reporter gene (mKate2), inhibitor | – | 20 µM | – | inhibition | -0.0526% |
| CC[C@H](C)[C@H](NC(=O)[C@@H]1CCCN1C(=O)[C@H](C)NC(=O)[C@@H]1CSSC[C@@H]2NC(=O)[C@H](CC(=O)O)NC(=O)[C@H](CCCNC(=N)N)NC(=O)[C@H](CCC(=O)O)NC(=O)[C@H](CCCNC(=N)N)NC(=O)CNC(=O)[C@H](CC(=O)O)NC(=O)[C@@H]3CSSC[C@H](NC(=O)[C@H](CCC(=O)O)NC(=O)[C@H](CC(C)C)NC(=O)CNC(=O)[C@H](C)NC(=O)[C@H](CSSC[C@H](NC(=O)[C@H](Cc4ccccc4)NC(=O)[C@@H](N)CO)C(=O)N[C@@H](CC(C)C)C(=O)N[C@@H](C(C)C)C(=O)N[C@@H](CCCCN)C(=O)N[C@@H](Cc4c[nH]c5ccccc45)C(=O)N[C@@H](CCCCN)C(=O)N[C@@H](CCC(N)=O)C(=O)N3)NC2=O)C(=O)N[C@@H](Cc2c[nH]c3ccccc23)C(=O)N[C@@H](CCCCN)C(=O)N[C@@H](CCCNC(=N)N)C(=O)N[C@@H](CO)C(=O)N[C@@H](CCCNC(=N)N)C(=O)N[C@@H](CC(N)=O)C(=O)N[C@@H](CCCCN)C(=O)N[C@@H](CO)C(=O)N[C@@H](CO)C(=O)N[C@@H](C(C)C)C(=O)N1)C(=O)N[C@H](C(=O)O)[C@@H](C)O | ASIC1 (Homo sapiens, UniProt P78348) | outside-out patch clamp | HEK-293T ASIC1a knockout | 1 µM, pH 6 | – | remaining peak response | 86 ± 3% |
| CC(C)[C@H](O)C(=O)N[C@@H](C)C(=O)N[C@@H]1C(=O)N(C)c2ccccc2-c2ccccc21 | rep main protease | viral replication, Gluc reporter | SARS-CoV-2 | 20 µM | – | inhibition | 0.713% |
| Cc1cncc(CC(=O)N2CCC[C@@H]([C@@H]3CCN(C(=O)c4cnn5cccnc45)C3)C2)c1 | rep main protease | enzyme activity, inhibitor | – | 5 µM, run 1 | – | inhibition | 9.3% |
| Cc1nc(N)cc(OCCNC(=O)c2ccc(S(=O)(=O)F)cc2)n1 | cya (Bacillus anthracis, UniProt P40136) | – | – | – | – | kinact | 0.00263 s⁻¹ |
| CCc1c(C(=O)C(N)=O)c2c(OCC(=O)O)cccc2n1Cc1ccccc1 | Daboia russelii venom phospholipase A2 | enzyme activity, inhibitor | GA population | 0.001 µM, added: NOB substrate | baseline: venom alone | remaining activity | 94.2% and 93.8% and 99.5% |
| Cc1ccncc1C(=O)N[C@@H](CNC(=O)C1=NOCC1)c1ccc2ccccc2c1 | rep main protease | enzyme activity, inhibitor | – | 5 µM, run 2 | – | inhibition | 13.8% |
| CC(C)=CCc1c(O)ccc(C(=O)/C=C/c2ccc(O)cc2)c1O | Spike glycoprotein | binding | – | – | – | koff | 0.249 s⁻¹ |
| CCOC(=O)N1CSCC1C(=O)O (racemic) | rep main protease | reporter gene (mKate2), inhibitor | – | 20 µM | – | inhibition | -0.679% |
| O=C1NC(=O)C2(CC(C(=O)NC[C@@H]3CC4(CCC4)CN3C(=O)c3ccn4ccnc4c3)C2)N1 (some centres unmarked) | rep main protease | enzyme activity, inhibitor | – | 5 µM, run 2 | – | inhibition | 8.4% |

A few entries again:
| Compound | tested on | test | system | conditions | scale | endpoint | result |
| --- | --- | --- | --- | --- | --- | --- | --- |
| CC[C@H](C)[C@H](NC(=O)[C@H](CC(C)C)NC(=O)[C@H](Cc1c[nH]c2ccccc12)NC(=O)[C@H](CCC(N)=O)NC(=O)[C@@H](NC(=O)[C@H](Cc1ccccc1)NC(=O)[C@H](C)NC(=O)[C@H](CCCCNC(=O)COCCOCCNC(=O)COCCOCCNC(=O)CC[C@H](NC(=O)CCCCCCCCCCCCCCCCCCC(=O)O)C(=O)O)NC(=O)[C@H](CCC(N)=O)NC(=O)[C@H](C)NC(=O)[C@@H](NC(=O)[C@H](CCCCN)NC(=O)[C@H](CC(=O)O)NC(=O)[C@H](CC(C)C)NC(=O)C(C)(C)NC(=O)[C@@H](NC(=O)[C@H](CO)NC(=O)[C@H](Cc1ccc(O)cc1)NC(=O)[C@H](CC(=O)O)NC(=O)[C@H](CO)NC(=O)[C@@H](NC(=O)[C@H](Cc1ccccc1)NC(=O)[C@@H](NC(=O)CNC(=O)[C@H](CCC(=O)O)NC(=O)C(C)(C)NC(=O)[C@@H](N)Cc1ccc(O)cc1)[C@@H](C)O)[C@@H](C)O)[C@@H](C)CC)[C@@H](C)CC)C(C)C)C(=O)N[C@@H](C)C(=O)NCC(=O)NCC(=O)N1CCC[C@H]1C(=O)N[C@@H](CO)C(=O)N[C@@H](CO)C(=O)NCC(=O)N[C@@H](C)C(=O)N1CCC[C@H]1C(=O)N1CCC[C@H]1C(=O)N1CCC[C@H]1C(=O)N[C@@H](CO)C(N)=O | – | – | healthy subjects | all MAD doses | – | subjects feeling hot | 28.6% |
